Measurements from different studies.
Each line is one published result; not all experiments were run side by side.
Cell line: CCRF-CEM

The growth of `CCCC(CCC)C(=O)OCc1cn(-c2c3ccccc3nc3ccccc23)nn1` is reported as 76.7% (NCI60 single dose; 10 µM).
With `CCCCN1CCN(c2ccc3[nH]c(-c4ccc5[nH]c(-c6cc(OC)c(OC)c(OC)c6)nc5c4)nc3c2)CC1` the growth percent was 25.1% (cell growth, NCI-60 SRB; 10 µM, 48 h).
The growth percent of `NNc1nc(-c2ccc(Cl)cc2)c2c(NC(=O)c3ccccc3)nnc-2[nH]1` is reported as 92.9% (NCI60 SRB; 10 µM).
For `Cn1cncc1C1=CN(c2ncnc3[nH]cnc23)CCS1`, the GI50 was 26.9 µM (leukaemia cell line).
Under “total apoptotic cells”, `Nc1nc(S)nc(O)c1N=Cc1cn(-c2ccccc2)nc1-c1ccc(Cl)cc1` is recorded as 38.5% (annexin V-FITC/PI flow cytometry; 1000 µM, 24 h).
`O=C(Nc1nnc2[nH]c(=S)[nH]c(-c3ccc(Cl)cc3)c1-2)c1ccccc1` has a growth percent of 94.8% (NCI60 SRB; 10 µM).
The growth percent of `CCCCN1CCN(c2ccc3[nH]c(-c4ccc5[nH]c(-c6ccc(C(F)(F)F)cc6)nc5c4)nc3c2)CC1` is reported as -32.6% (cell growth, NCI-60 SRB; 10 µM, 48 h).
`CCN(CC)c1ccc(C=NNC(=O)CSc2nc3ccccc3c(=O)n2Cc2ccc(S(N)(=O)=O)cc2)c(O)c1` gave a TGI of over 100 µM (cell growth; NCI five-dose screen).
With `CCOc1ccc(-c2nc3cc(-c4nc5cc(N6CCN(C)CC6)ccc5[nH]4)ccc3[nH]2)cc1OCC` the growth percent was 11.3% (cell growth, NCI-60 SRB; 10 µM, 48 h).
The growth percent of `O=C(Nc1nnc2n3c(=S)[nH][nH]c3nc(-c3ccc(Cl)cc3)c1-2)c1ccccc1` is reported as 91.3% (NCI60 SRB; 10 µM).
`O=C1NC(c2ccccc2)(c2ccccc2)C(=O)N1Cc1cn(-c2c3ccccc3nc3ccccc23)nn1` gave a growth of 64.6% (NCI60 single dose; 10 µM).
`COc1ccc(OC)c(-c2nc3ccc(-c4nc5ccc(N6CCN(C)CC6)cc5[nH]4)cc3[nH]2)c1` gave a growth percent of 86.3% (cell growth, NCI-60 SRB; 10 µM, 48 h).
With `Cc1n[nH]c2nc(-c3ccc(Cl)cc3)c3c(NC(=O)c4ccccc4)nnc-3n12` the growth percent was 90.3% (NCI60 SRB; 10 µM).
For `S=C([S][Au-][P+](CCCCCC[P+]([Au-][S]C(=S)n1cccn1)(c1ccccc1)c1ccccc1)(c1ccccc1)c1ccccc1)n1cccn1`, the log TGI was -5.3 log10 M (cell growth, NCI-60 screen; leukaemia).
For `Cc1ccc(-c2cc3ccccc3c(N)n2)cc1`, “early apoptotic cells” read 10.7% (annexin V-FITC/PI flow cytometry, measured: annexin V+ PI-; 2.5 µM, 72 h).
The growth percent of `CCCN1CCN(c2ccc3[nH]c(-c4ccc5[nH]c(-c6cc(OC)c(OC)c(OC)c6)nc5c4)nc3c2)CC1` is reported as 41.2% (cell growth, NCI-60 SRB; 10 µM, 48 h).
`Cc1cc(C)n(-c2nc(-c3ccc(Cl)cc3)c3c(NC(=O)c4ccccc4)nnc-3[nH]2)n1` has a growth percent of 97.8% (NCI60 SRB; 10 µM).
`CCCN1CCN(c2ccc3nc(-c4ccc5nc(-c6cc(OC)ccc6OC)[nH]c5c4)[nH]c3c2)CC1` gave a growth percent of 3.98% (cell growth, NCI-60 SRB; 10 µM, 48 h).
The growth percent of `Cc1cc(-c2ccccc2)n(-c2nc(-c3ccc(Cl)cc3)c3c(NC(=O)c4ccccc4)nnc-3[nH]2)n1` is reported as 96.3% (NCI60 SRB; 10 µM).
`O=C1NC(c2ccccc2)(c2ccccc2)C(=O)N1Cc1cn(-c2cc3ccccc3oc2=O)nn1` has a growth of 92.2% (NCI60 single dose; 10 µM).
